# Assay results collected from several papers.
# Lines come from different studies, so protocols differ.
SMILES,test,system,conditions,ED50 [mg/kg]
C[C@@H]1NC(C)(C)CO[C@@]1(O)c1ccc2ccccc2c1,"nicotine antinociception, antagonist, tail-flick test",mice,"15 min pretreatment, added: nicotine 2.5 mg/kg sc",0.034 to 0.054
C=CCNCCc1c[nH]c2cccc(O)c12.C=CCNCCc1c[nH]c2cccc(O)c12.O=C(O)/C=C/C(=O)O,head twitch response,C57BL/6J mice,"subcutaneous, 30 min session",1.1
CCCCCn1nc(C(=O)NC(C(N)=O)C(C)(C)C)c2ccccc21 (stereo not shown),locomotor depression,male ND4 Swiss-Webster mice,intraperitoneal,0.31
Cc1ccc([C@H]2C[C@@H]3CC[C@H]([C@H]2c2cc(-c4ccc(Cl)cc4)no2)N3C)cc1,"nicotine conditioned place preference, antagonist",mice,added: nicotine 0.5 mg/kg sc,0.013 to 0.15
CCCCCc1cc(O)c2c(c1)OC(C)(C)[C@@H]1CCC(C)=C[C@@H]21,hypothermia,"ICR mice, female, rectal temperature",intraperitoneal,5.95
CCCCCn1cc(C(=O)c2ccc(C)c3ccccc23)c2ccccc21,locomotor depression,male ND4 Swiss-Webster mice,intraperitoneal,0.61
O=C(O)/C=C/C(=O)O.Oc1cccc2[nH]cc(CCNC3CCCCC3)c12,head twitch response,C57BL/6J mice,"subcutaneous, 30 min session",> 30
C[C@@H]1NC(C)(C)CO[C@@]1(O)c1cccc2ccccc12,"nicotine antinociception, antagonist, tail-flick test",mice,"15 min pretreatment, added: nicotine 2.5 mg/kg sc",0.034 to 0.054
CC(C)(C)NCCc1c[nH]c2cccc(O)c12.CC(C)(C)NCCc1c[nH]c2cccc(O)c12.O=C(O)/C=C/C(=O)O,head twitch response,C57BL/6J mice,"subcutaneous, 30 min session",> 30
C=CCN1CC[C@]23c4c5ccc(O)c4O[C@H]2[C@H](NC(=O)c2ccccc2)CC[C@@]3(O)[C@H]1C5,"tail flick analgesia, radiant heat tail flick",CD-1 mice,subcutaneous,5
CCCCCn1cc(C(=O)NC(C(N)=O)C(C)(C)C)c2ccccc21 (stereo not shown),locomotor depression,male ND4 Swiss-Webster mice,intraperitoneal,1.07
O=C(O)/C=C/C(=O)O.Oc1cccc2[nH]cc(CCNCc3ccccc3)c12,head twitch response,C57BL/6J mice,"subcutaneous, 30 min session",1.2
COC(=O)[C@H]1[C@@H](c2ccc(Cl)c(C)c2)C[C@@H]2CC[C@H]1N2C,"nicotine antinociception, antagonist, hot-plate test",mice,added: nicotine 2.5 mg/kg sc,0.35 to 9.8

# Repeated from above:
SMILES,test,system,conditions,ED50 [mg/kg]
CCCCCn1nc(C(=O)NC(C(N)=O)C(C)(C)C)c2ccccc21 (stereo not shown),locomotor depression,male ND4 Swiss-Webster mice,intraperitoneal,0.31
